Assay results from different studies.
Lines come from different studies, so protocols differ. ± marks the error that the study gave. ≈ marks a conversion by molar mass, not a printed value.

Cc1cc(C)cc(S(=O)(=O)c2c(C(=O)NCCCCCNS(=O)(=O)c3cccs3)[nH]c3ccc(Cl)cc23)c1 — EC50 (HIV-1; viral replication; MT-4, IIIB): 0.067 ± 0.027 µM
O=C(O)CSc1nnc(C23CC4CC(CC(C4)C2)C3)n1-c1ccccc1 — inhibition zone diameter (Bacillus subtilis; IFO 3007; 200 µg/disc, 24 h, 37 °C): 18 mm
NC(=O)c1ncn([C@@H]2O[C@H](CO)[C@@H](O)[C@H]2O)n1 — protective activity (tobacco mosaic virus; half-leaf method; tobacco; 500 µg/mL, 24 h before inoculation): 48.6 ± 2.5%
Cc1noc(/C=C/c2ccccn2)c1[N+](=O)[O-] — EC50 (Schistosoma mansoni; motility, automated imaging; adult female worms; 48 h): ~6 µM
CCCCOc1ccc(-c2nc(N)[nH]c2C(F)(F)F)cc1 — EC50 (Mycolicibacterium smegmatis; biofilm): 95.2 ± 5.4 µM
CCCCCCOc1ccccc1C(=O)/C=C/C=C/c1ccccc1 — zone of inhibition (Candida tropicalis; MTCC 230; 1000 µg/mL, 18 h): 7 mm
Cc1cc(C)cc(S(=O)(=O)c2c(C(=O)NCCCCNS(=O)(=O)c3cccs3)[nH]c3ccc(Cl)cc23)c1 — EC50 (HIV-1; viral replication; MT-4, IIIB): 0.045 ± 0.017 µM
Fc1ccccc1NCc1ccc(Oc2ccccn2)cc1 — MIC (Mycobacterium tuberculosis; H37Rv, GAST-Fe medium; 1 weeks, pH 6.6): 43 µM (≈ 12.7 µg/mL)
CNC1=C([N+](=O)[O-])C2(C(=O)Nc3ccccc32)C2=C(CC(C)(C)CC2=O)O1 (stereo not shown) — inhibition (Salmonella enterica; microbial growth; TYPHIMURIUM; 250 µg/mL, 24 h): 57.7%
O=C(O)c1nc2ccccc2c(=O)n1Cc1cn(-c2ccc([N+](=O)[O-])cc2)nn1 — IC50 (Candida tropicalis; microbial growth, broth dilution; ATCC750; 24 h): 337 µg/mL
Brc1ccc(NCc2ccc(Oc3ccccn3)cc2)cc1 — MIC (Mycobacterium tuberculosis; H37Rv, GAST-Fe medium; 1 weeks, pH 6.6): 35 µM (≈ 12.4 µg/mL)
Cc1cc(C)cc(S(=O)(=O)c2c(C(=O)NCCCCCNS(=O)(=O)c3ccc(Cl)cc3)[nH]c3ccc(Cl)cc23)c1 — EC50 (HIV-1; viral replication; MT-4, IIIB): 0.01 ± 0.0014 µM
Clc1ccc(NCc2ccc(Oc3ccccn3)cc2)cc1 — MIC (Mycobacterium tuberculosis; H37Rv, GAST-Fe medium; 1 weeks, pH 6.6): 40 µM (≈ 12.4 µg/mL)
Cc1cccc(-n2cc(Cn3c(C(=O)O)nc4ccccc4c3=O)nn2)c1 — IC50 (Candida tropicalis; microbial growth, broth dilution; ATCC750; 24 h): 223 µg/mL
COc1ccccc1OCCNCC(O)COc1cccc2[nH]c3ccccc3c12 (stereo not shown) — inhibition (Lytechinus pictus; cADPR-induced Ca2+ release, inhibitor, Fluo-3 fluorimetry; egg homogenate; concentration not given, maximal extent, high concentration, together with: cADPR 0.3 µM): 82%
Brc1cccc(NCc2ccc(Oc3ccccn3)cc2)c1 — MIC (Mycobacterium tuberculosis; H37Rv, 7H9/ADC/Tween medium; 2 weeks): 70 µM (≈ 24.9 µg/mL)
CNC(C)C1CCC(N)C(OC2C(N)CC(N)C(OC3OCC(C)(O)C(NC)C3O)C2O)O1 (stereo not shown) — inhibition zone diameter (Bacillus subtilis; IFO 3007; 100 µg/disc, 24 h): 25 mm
Cc1ccc(-n2cc(Cn3c(C(=O)O)nc4ccccc4c3=O)nn2)cc1 — IC50 (Candida tropicalis; microbial growth, broth dilution; ATCC750; 24 h): 13.5 µg/mL
O=C(C1CCCCC1)N1CC(=O)N2CCc3ccccc3C2C1 (racemic) — trans-surface potential (Schistosoma mansoni; current clamp; adult males; 10 µM, 10 min): -3.9 ± 0.6 mV
O=C(O)c1nc2ccccc2c(=O)n1Cc1cn(-c2ccc(Cl)cc2)nn1 — IC50 (Candida tropicalis; microbial growth, broth dilution; ATCC750; 24 h): 303 µg/mL
CC[C@H]1OC(=O)[C@H](C)[C@@H](O[C@H]2C[C@@](C)(OC)[C@@H](O)[C@H](C)O2)[C@H](C)[C@@H](O[C@@H]2O[C@H](C)C[C@H](N(C)C)[C@H]2O)[C@](C)(O)C[C@@H](C)C(=O)[C@H](C)[C@@H](O)[C@]1(C)O — sensitive strains (Enterococcus; community-acquired pneumonia patients; Fine score 70 or more): 0%
O=c1c(O)c(-c2cc(O)c(O)c(O)c2)oc2cc(O)cc(O)c12 — IC50 (human alphaherpesvirus 1; viral replication; HEp-2, F; 24 h): 6.3 ± 0.2 µM
Cc1ccc(C(=O)N(C(=O)c2ccc(C)cc2)C(=S)N2N=C(c3ccc(Cl)cc3)CC2c2ccc(F)cc2)cc1 (stereo not shown) — IC50 (Artemia; cytotoxicity; 24 h): 142 ± 8.1 µM
Cc1cc(C)cc(S(=O)(=O)c2c(C(=O)NCCCNS(=O)(=O)c3cccs3)[nH]c3ccc(Cl)cc23)c1 — EC50 (HIV-1; viral replication; MT-4, IIIB): 0.057 ± 0.012 µM
Oc1c(Br)cc(Br)c2nc3ccccc3nc12 — MBC (Enterococcus; Calgary Biofilm Device; VRE 700221; biofilm): 18.8 µM (≈ 6.66 µg/mL)
N=C(N)c1ccc(OCCCCCOc2ccc(C(=N)N)cc2)cc1 — IC50 (Leishmania tarentolae; viability, resazurin; promastigotes, Schneider's medium; 48 h, 26 °C, together with: 10% FCS): 0.78 ± 0.37 µM
CNC1=C([N+](=O)[O-])C2(C(=O)Nc3ccccc32)C2=C(O1)C(=O)c1ccccc1C2=O (stereo not shown) — inhibition (Salmonella enterica; microbial growth; TYPHIMURIUM; 250 µg/mL, 24 h): 100%
COc1ccc(C(=O)NN=Cc2ccc(O)c3ncccc23)cc1 — EC50 (Enterobacter cloacae; bacterial growth; ATCC 13047; cation-supplemented medium): 100 µM
CC1(C)S[C@@H]2[C@H](NC(=O)[C@H](N)c3ccccc3)C(=O)N2[C@H]1C(=O)O — inhibition zone diameter (Bacillus subtilis; IFO 3007; 100 µg/disc, 24 h): 21 mm
CC(C)C[C@H](NC(=O)[C@H](Cc1ccccc1)NC(=O)c1cnccn1)B(O)O — decrease in proteasome β5 activity (Schistosoma mansoni; Suc-LLVY-AMC in extracts; 1 µM, 24 h, living worms): 76%
COc1ccccc1-n1cc(Cn2c(C(=O)O)nc3ccccc3c2=O)nn1 — IC50 (Candida tropicalis; microbial growth, broth dilution; ATCC750; 24 h): 9.1 µg/mL
CC1(C)S[C@@H]2[C@H](NC(=O)[C@H](N)c3ccc(O)cc3)C(=O)N2[C@H]1C(=O)O — sensitive strains (coagulase-negative Staphylococcus; community-acquired pneumonia patients; Fine score below 70): 33.3%
Nc1nc2c(ncn2COCCO)c(=O)[nH]1 — IC50 (human alphaherpesvirus 1; viral GFP expression, live cell imaging; primary keratinocytes, six donors, K26, GFP-expressing; peak infection time): 67.7 ± 18.2 µM
Cc1cc(C)cc(S(=O)(=O)c2c(C(=O)NCCNS(=O)(=O)c3ccc(F)cc3)[nH]c3ccc(Cl)cc23)c1 — EC50 (HIV-1; viral replication; MT-4, IIIB): 0.028 ± 0.0036 µM
CNC1=C([N+](=O)[O-])C2(C(=O)Nc3ccc(Cl)cc32)C2=C(CC(C)(C)CC2=O)O1 (stereo not shown) — inhibition (Salmonella enterica; microbial growth; TYPHIMURIUM; 250 µg/mL, 24 h): 58.5%
CCOC(=O)CSc1nnc(C23CC4CC(CC(C4)C2)C3)n1-c1ccccc1 — inhibition zone diameter (Bacillus subtilis; IFO 3007; 200 µg/disc, 24 h, 37 °C): 19 mm
CCOC(=O)c1nc2ccccc2c(=O)n1Cc1cn(-c2ccccc2Cl)nn1 — IC50 (Candida tropicalis; microbial growth, broth dilution; ATCC750; 24 h): 65.6 µg/mL
CNC1=C([N+](=O)[O-])C2(C(=O)Nc3ccccc32)c2c(c3ccccc3oc2=O)O1 (stereo not shown) — inhibition (Salmonella enterica; microbial growth; TYPHIMURIUM; 250 µg/mL, 24 h): 31%
CCOC(=O)c1nc2ccccc2c(=O)n1Cc1cn(-c2ccc(C)cc2)nn1 — IC50 (Candida tropicalis; microbial growth, broth dilution; ATCC750; 24 h): 12.4 µg/mL
Cc1cc(C)cc(S(=O)(=O)c2c(C(=O)NCCNS(=O)(=O)c3ccc(C#N)cc3)[nH]c3ccc(Cl)cc23)c1 — EC50 (HIV-1; viral replication; MT-4, IIIB): 0.065 ± 0.019 µM
COc1cccc(-n2cc(Cn3c(C(=O)O)nc4ccccc4c3=O)nn2)c1 — IC50 (Candida tropicalis; microbial growth, broth dilution; ATCC750; 24 h): 444 µg/mL
Clc1cccc(NCc2ccc(Oc3ccccn3)cc2)c1 — MIC (Mycobacterium tuberculosis; H37Rv, 7H9/ADC/Tween medium; 1 weeks): 40 µM (≈ 12.4 µg/mL)
CC[C@H]1OC(=O)[C@H](C)[C@@H](O[C@H]2C[C@@](C)(OC)[C@@H](O)[C@H](C)O2)[C@H](C)[C@@H](O[C@@H]2O[C@H](C)C[C@H](N(C)C)[C@H]2O)[C@](C)(O)C[C@@H](C)CN(C)[C@H](C)[C@@H](O)[C@]1(C)O — sensitive strains (Enterococcus; community-acquired pneumonia patients; Fine score below 70): 0%
